Assay results pooled from the literature.
A part holds a random share of what one study measured. Substitutions count along the parent as printed.
Chain of UniProt P27361 (whole entry, looked up): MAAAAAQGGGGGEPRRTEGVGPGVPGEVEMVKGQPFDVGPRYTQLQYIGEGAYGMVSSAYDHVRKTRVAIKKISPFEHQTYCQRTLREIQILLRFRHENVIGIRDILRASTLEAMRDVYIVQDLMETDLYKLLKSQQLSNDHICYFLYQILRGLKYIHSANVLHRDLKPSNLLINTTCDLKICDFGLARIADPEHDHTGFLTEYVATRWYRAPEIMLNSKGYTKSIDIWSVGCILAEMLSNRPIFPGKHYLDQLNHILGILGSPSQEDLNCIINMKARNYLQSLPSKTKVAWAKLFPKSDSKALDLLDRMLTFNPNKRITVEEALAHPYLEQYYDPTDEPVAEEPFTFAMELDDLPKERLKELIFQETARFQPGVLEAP
Chain of UniProt Q13131 (whole entry, looked up): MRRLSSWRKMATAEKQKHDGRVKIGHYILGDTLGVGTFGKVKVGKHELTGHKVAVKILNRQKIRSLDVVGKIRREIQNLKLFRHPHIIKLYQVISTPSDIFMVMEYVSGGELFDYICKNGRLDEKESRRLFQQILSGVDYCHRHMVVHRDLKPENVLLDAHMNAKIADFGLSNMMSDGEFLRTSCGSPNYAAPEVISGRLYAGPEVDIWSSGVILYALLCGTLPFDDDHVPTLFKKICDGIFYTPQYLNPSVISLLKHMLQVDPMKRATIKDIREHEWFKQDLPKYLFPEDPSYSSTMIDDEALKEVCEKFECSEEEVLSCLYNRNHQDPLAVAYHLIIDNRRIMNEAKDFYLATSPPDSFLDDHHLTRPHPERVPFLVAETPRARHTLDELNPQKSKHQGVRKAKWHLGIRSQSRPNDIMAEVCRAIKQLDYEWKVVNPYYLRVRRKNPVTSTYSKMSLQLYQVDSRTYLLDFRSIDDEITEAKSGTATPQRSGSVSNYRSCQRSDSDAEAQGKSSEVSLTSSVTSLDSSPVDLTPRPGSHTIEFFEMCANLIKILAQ
Chain of UniProt Q02763 (whole entry, looked up): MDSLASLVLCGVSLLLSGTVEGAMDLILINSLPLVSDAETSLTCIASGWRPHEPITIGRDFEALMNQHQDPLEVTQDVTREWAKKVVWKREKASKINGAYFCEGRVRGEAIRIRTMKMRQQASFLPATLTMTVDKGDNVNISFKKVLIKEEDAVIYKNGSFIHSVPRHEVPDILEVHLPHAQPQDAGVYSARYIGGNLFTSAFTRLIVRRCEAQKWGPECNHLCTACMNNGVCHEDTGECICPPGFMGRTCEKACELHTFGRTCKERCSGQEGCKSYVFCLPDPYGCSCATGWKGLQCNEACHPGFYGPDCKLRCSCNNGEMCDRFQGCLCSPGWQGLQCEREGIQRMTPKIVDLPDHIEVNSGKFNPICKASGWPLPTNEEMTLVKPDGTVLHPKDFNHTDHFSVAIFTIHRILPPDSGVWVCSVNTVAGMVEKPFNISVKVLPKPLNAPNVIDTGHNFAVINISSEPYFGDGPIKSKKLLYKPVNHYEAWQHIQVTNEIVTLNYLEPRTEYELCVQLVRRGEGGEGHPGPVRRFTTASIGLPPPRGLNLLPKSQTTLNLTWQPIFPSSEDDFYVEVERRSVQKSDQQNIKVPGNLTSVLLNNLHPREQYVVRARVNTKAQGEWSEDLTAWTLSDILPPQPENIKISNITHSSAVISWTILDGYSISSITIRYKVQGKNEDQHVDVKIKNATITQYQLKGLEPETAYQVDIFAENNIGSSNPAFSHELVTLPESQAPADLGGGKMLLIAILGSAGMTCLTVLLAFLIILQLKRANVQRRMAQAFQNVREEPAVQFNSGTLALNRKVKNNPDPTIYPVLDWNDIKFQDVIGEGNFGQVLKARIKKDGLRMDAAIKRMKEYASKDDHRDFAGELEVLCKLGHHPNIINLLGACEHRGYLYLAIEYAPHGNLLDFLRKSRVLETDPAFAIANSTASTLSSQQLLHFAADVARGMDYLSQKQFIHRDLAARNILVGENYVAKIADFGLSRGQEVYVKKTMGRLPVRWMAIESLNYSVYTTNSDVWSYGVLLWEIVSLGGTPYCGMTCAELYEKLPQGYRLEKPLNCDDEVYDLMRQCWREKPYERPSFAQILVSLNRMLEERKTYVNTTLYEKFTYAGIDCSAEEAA
Chain of UniProt O60285 (whole entry, looked up): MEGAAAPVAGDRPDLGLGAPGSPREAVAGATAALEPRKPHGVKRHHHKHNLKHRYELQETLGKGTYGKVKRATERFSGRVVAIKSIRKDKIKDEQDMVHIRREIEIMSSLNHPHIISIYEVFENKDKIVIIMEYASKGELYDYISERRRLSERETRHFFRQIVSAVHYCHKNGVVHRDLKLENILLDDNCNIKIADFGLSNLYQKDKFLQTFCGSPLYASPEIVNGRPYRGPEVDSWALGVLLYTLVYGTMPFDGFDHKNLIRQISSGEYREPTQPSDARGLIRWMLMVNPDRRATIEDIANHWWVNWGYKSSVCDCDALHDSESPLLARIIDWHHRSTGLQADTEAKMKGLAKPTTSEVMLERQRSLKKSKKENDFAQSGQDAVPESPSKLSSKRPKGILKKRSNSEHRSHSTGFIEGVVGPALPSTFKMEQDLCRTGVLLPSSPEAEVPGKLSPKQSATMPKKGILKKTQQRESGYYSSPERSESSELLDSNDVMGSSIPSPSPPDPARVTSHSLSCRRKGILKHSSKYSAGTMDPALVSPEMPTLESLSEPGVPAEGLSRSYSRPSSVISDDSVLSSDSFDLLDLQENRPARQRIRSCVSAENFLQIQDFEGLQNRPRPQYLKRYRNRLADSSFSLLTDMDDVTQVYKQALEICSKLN
Chain of UniProt Q9UL54 (whole entry, looked up): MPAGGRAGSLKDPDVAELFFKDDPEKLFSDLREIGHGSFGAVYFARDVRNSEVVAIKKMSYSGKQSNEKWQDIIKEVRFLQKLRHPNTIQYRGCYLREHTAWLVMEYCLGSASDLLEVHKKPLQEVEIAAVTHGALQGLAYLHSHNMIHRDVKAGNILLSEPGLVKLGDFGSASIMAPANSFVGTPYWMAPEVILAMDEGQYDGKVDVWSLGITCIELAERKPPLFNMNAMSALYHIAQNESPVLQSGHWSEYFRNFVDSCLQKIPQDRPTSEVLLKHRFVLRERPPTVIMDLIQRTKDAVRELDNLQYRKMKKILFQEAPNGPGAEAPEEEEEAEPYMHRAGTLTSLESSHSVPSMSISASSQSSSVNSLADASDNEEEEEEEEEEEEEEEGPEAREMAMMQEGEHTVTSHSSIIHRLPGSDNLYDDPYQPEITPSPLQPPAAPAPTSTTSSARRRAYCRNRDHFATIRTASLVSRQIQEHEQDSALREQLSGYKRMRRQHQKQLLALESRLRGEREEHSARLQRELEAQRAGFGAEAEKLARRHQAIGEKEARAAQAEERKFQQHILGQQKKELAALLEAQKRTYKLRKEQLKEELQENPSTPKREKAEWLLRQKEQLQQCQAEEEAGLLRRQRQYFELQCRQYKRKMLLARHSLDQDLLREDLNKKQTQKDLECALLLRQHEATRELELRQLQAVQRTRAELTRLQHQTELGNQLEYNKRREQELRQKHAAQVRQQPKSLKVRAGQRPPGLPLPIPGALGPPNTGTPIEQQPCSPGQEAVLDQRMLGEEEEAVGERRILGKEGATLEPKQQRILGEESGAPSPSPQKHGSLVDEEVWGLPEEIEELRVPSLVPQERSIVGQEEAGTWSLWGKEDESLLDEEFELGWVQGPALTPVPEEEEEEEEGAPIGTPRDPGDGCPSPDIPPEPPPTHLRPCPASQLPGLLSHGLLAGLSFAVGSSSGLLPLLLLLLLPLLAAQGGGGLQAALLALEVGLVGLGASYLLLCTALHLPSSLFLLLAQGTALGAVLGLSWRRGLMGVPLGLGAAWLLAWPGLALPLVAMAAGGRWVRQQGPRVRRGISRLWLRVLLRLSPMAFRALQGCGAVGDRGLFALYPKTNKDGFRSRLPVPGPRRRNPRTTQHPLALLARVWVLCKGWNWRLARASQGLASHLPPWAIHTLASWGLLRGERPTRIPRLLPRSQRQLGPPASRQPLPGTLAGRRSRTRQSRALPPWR
Chain of UniProt P42685 (whole entry, looked up): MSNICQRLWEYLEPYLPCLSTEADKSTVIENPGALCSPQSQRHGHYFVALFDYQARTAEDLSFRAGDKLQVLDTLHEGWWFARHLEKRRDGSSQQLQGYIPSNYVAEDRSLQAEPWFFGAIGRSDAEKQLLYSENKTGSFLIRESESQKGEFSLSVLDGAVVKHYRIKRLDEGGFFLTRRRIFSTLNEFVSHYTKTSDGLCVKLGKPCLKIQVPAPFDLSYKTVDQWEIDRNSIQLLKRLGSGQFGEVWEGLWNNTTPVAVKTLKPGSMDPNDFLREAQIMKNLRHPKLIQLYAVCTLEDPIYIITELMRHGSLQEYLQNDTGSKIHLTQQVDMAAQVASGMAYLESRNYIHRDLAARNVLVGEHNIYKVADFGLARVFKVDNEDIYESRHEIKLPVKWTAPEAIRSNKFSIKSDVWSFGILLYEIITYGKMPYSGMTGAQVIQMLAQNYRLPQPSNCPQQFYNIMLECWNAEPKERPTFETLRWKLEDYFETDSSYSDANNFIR
Chain of UniProt P06239 (whole entry, looked up): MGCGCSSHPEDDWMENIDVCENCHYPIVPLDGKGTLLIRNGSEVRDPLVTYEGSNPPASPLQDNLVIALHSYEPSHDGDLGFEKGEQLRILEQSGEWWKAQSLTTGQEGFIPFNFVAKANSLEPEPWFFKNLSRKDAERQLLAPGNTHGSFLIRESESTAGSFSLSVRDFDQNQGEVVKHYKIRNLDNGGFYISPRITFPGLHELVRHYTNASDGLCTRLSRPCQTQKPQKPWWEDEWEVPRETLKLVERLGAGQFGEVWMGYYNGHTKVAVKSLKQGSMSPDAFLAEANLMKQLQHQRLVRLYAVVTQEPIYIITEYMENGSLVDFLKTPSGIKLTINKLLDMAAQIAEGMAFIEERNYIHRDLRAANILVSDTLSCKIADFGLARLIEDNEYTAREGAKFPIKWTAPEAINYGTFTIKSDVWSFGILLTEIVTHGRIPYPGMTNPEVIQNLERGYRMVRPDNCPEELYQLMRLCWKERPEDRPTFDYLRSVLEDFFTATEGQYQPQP

Study 1 — read-out: cell-free assay; technique: competition with immobilised ligand; concentration: 1 µM
SMILES: Cc1cc(NC(=O)c2cccc(S(F)(F)(F)(F)F)c2)cc(-n2ccn3nc(-c4cccnc4)cc23)c1
target | remaining binding
ZAP70 (Homo sapiens, UniProt P43403) | 100%
PIK3CA (Homo sapiens, UniProt P42336, I800L) | 96%
MAK (Homo sapiens, UniProt P20794) | 100%
RIOK1 (Homo sapiens, UniProt Q9BRS2) | 100%
ALK (Homo sapiens, UniProt Q9UM73, L1196M) | 100%
EPHA4 (Homo sapiens, UniProt P54764) | 76%
PRKAA1 (Homo sapiens, UniProt Q13131) | 100%
NUAK1 (Homo sapiens, UniProt O60285) | 51.3%
TLK2 (Homo sapiens, UniProt Q86UE8) | 94.3%
MUSK (Homo sapiens, UniProt O15146) | 82%
PDGFRA (Homo sapiens, UniProt P16234) | 100%
IKBKB (Homo sapiens, UniProt O14920) | 65.5%

Study 2 — technique: protein binding microarray; form: double-stranded DNA, one strand shown; medium: in vitro; concentration: not given; relative to: not given; reading: higher = stronger binding
Target: Histone acetyltransferase KAT6A, winged helix 2, GST fusion (KAT6A, Homo sapiens, UniProt Q92794, residues 85-181)
Setting: 8-mer, flanks averaged, mean of 2 arrays, mostly near background
Target sequence (chain): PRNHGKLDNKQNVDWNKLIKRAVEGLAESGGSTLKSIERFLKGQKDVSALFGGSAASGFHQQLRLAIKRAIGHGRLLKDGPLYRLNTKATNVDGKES
Oligonucleotide | E-score
ACGACTGA | -0.0134
CGGCGTAC | 0.0515
ATATGGGA | -0.149
TAGTACAA | -0.0679
GATGGCCA | -0.0699
CTTTGACC | 0.0464
AGGTTGTA | -0.0859
ACATTGAG | -0.0356

Study 3 — target: DBP, bZIP domain (human); technique: DHFR protein complementation; medium: yeast; relative to: wild-type JUN-FOS pair; reading: higher = stronger binding
Setting: single substitutions, most at no-binding floor
Parent: JUN, bZIP domain (human); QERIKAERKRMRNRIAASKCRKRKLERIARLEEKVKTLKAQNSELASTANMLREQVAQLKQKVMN; partner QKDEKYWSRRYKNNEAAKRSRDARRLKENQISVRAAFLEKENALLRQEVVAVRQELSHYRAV
Variant | binding fitness [natural log]
E44Q | -1.44
K39D | -1.43
T37S | -1.47
L31K | -1.49
A57H | -1.52
R30K | -1.53
V35S | -1.56
L38T | -1.58

Study 4 — read-out: enzyme activity; action: inhibitor; concentration: 0.5 µM; relative to: control
SMILES: COc1cc2ncnc(Nc3ccc(OCc4ccccc4)cc3)c2cc1OC
target | remaining activity [%]
JAK3 (Homo sapiens, UniProt P52333) | 108
MAP3K5 (Homo sapiens, UniProt Q99683) | 97.8
WEE1 (Homo sapiens, UniProt P30291) | 94.7
TAOK2 (Homo sapiens, UniProt Q9UL54) | 106
TEK (Homo sapiens, UniProt Q02763) | 97.9
MAPK3 (Homo sapiens, UniProt P27361) | 98.4
MAP3K14 (Homo sapiens, UniProt Q99558) | 84.4
MERTK (Homo sapiens, UniProt Q12866) | 19.5
LCK (Homo sapiens, UniProt P06239) | 42.2
FGFR1 (Homo sapiens, UniProt P11362) | 91.3
RPS6KA2 (Homo sapiens, UniProt Q15349) | 100
FRK (Homo sapiens, UniProt P42685) | 104
ABL2 (Homo sapiens, UniProt P42684) | 101
